Published values pooled from the literature.

O=c1cc(/C=C/c2ccc(N(c3ccccc3)c3ccccc3)cc2)oc(/C=C/c2ccc(N(c3ccccc3)c3ccccc3)cc2)c1 — fluorescence lifetime (acetonitrile; 298 K, together with: excitation 377 nm): 0.56 ns
CCCCN1C(=O)c2cccc3c(NCCCN4CCOCC4)ccc(c23)C1=O — fluorescence lifetime (methanol): 9.3 ns
CCN(CC)c1ccc(-c2oc3cc4ccccc4cc3c(=O)c2O)cc1 — fluorescence lifetime (CH3CN, N2-purged): 6.1 ns
CCCCN1C(=O)c2cccc3c(NCCCCCCCCCCN4CCOCC4)ccc(c23)C1=O — fluorescence lifetime (toluene): 8.6 ns
C=Cc1ccc([B-]23OC(=O)C(c4ccccc4)=N[N+]2=Cc2ccc(N(CC)CC)cc2O3)cc1 (stereo not drawn) — fluorescence lifetime (toluene): 2.53 ns
CCCCN1C(=O)c2cccc3c(NCCCCN4CCOCC4)ccc(c23)C1=O — fluorescence lifetime (water; pH 6.0): 4.6 ns
O=c1cc(/C=C/c2ccc(N3CCOCC3)cc2)oc(/C=C/c2ccc(N3CCOCC3)cc2)c1 — fluorescence lifetime (acetonitrile/water 1:19 v/v; 298 K, aggregate nanoparticle suspension, together with: excitation 377 nm): 1.1 ns
CCC1=[N+]2N=C(c3ccccc3)C(=O)O[B-]2(c2ccccc2)Oc2cc(N(CC)CC)ccc21 (stereo not drawn) — fluorescence lifetime (toluene): 2.52 ns
O=c1cc(/C=C/c2ccc(N3CCCC3)cc2)oc(/C=C/c2ccc(N3CCCC3)cc2)c1 — fluorescence lifetime (acetonitrile/water 1:19 v/v; 298 K, aggregate nanoparticle suspension, together with: excitation 377 nm): 1.1 ns
CCN(CC)c1ccc2c(c1)O[B-]1(c3ccccc3OC)OC(=O)C(c3ccccc3)=N[N+]1=C2 (stereo not drawn) — fluorescence lifetime (toluene): 2.46 ns
CN1CCN(c2ccc(/C=C/c3cc(=O)cc(/C=C/c4ccc(N5CCN(C)CC5)cc4)o3)cc2)CC1 — fluorescence lifetime (acetonitrile; 298 K, together with: excitation 377 nm): 0.49 ns
CCC1=[N+]2N=C(c3ccccc3)C(=O)O[B-]2(c2ccccc2)Oc2cc(OC)ccc21 (stereo not drawn) — fluorescence lifetime (toluene): 0.97 ns
